# Measured values pooled from the literature.
# Every numbered part comes from another study and shows a few of its results, in no order. Substitutions count along the parent as printed.

# Block 1
# Target: RNA binding protein fox-1 homolog 2, RRM domain, GST-SBP tag (RBFOX2, Homo sapiens, UniProt O43251-10, residues 100-194)
# Method: RNA Bind-n-Seq
# Molecule type: RNA
# Matrix: in vitro
# Concentration: 365 nM
# Setting: natural RNA segment, single round, ends assumed
# Baseline: no-protein control
# Direction: higher = stronger binding
# Constant ends, left off below: GGGAGUUCUACAGUCCGACGAUC … UGGAAUUCUCGGGUGCCAA
# Construct (chain): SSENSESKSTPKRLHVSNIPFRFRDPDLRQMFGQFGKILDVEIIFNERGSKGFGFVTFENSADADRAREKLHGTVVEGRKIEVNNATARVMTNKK
Oligonucleotide,RBNS enrichment (R)
GUGUGUGUAUGUAUAUGAUACAUAAUAUCACACACACACAAAGUUCUUUUUAGCUAUUCCUACAUACUUGUGUGUCAGCCCAUGUAUGUAGGUGUGACCGAUUUCAAGCA,0.369
CCAUUCAAUCUUCCCCACUAGGGGUUAUCAUUGGCAAUGGACGAGCUGAAGAUUUUGGAGCCUAUCCAUGGUUCAGGGCAGUAGAACUGGCUUCCUCUAUGGAUGCUUCC,0.183
CUACAGCUCCAUCAAAACCUUUCAUUCACUGCCAAUGAGGAGCACUUUCUUUCUGUAGCAUAGCUUCUGUCUCAGAUGCCCCAGCAAAUAAAUGCUGUCUCUUAUUGGUC,0.357
UCACACUGAUGGCAGGACACACAAGAGCAGGGUAUUGGUCUGCCCUUCUUCCUCCUGUCCGUCUGAUUUACCUAACUUUGGUCUCGGCUGCUGACUCUUGGAGAGGACCA,0.427
CUAGUGCCUGGCUUGCCACAUGGAAAGCAAGCACAAGGGAGCAGUAUUCCGUAGCAUAUGAUAGCAGAGCAAAUACCGGAUCUGGAUCUAGCUGAUUUCCAUCCAUUGGC,0.272
AAAAAAAAAAUGCAAAUCCGGGAUGGAUAAAUGUAGGGUUUUGGUCACUGUCCCCAUCGGCUCCUCAGAGUUGUUGGCCACCCUACCACUAACUGGAAGAGGAAACGCUG,0.333
CCCAGAGCACAGGAGCUGCCAUGUCAGAUGGGAAAUCUGCCUAUGUCAUACCGUGACAGCCCGCAGGAUCAGGUGACUUCUAGCAGAGACCCUGGUUUUUUUCCUGUGCC,0.612
GUUUUGUUUUUUCGAUGUGAAUAGAGAACUCGGACAUUUUGCUGCUAAACAAUCUCCCCUCCCUCACCCUACUUGCACUGCUGUGGGUUUUUUAAAGAGAAACAGAACCA,1.06
AAAGGGAUAAAGAAAAAAAUACUAUUUAAGAUGUGAAAAUUACAGUCCAAAAUACUGUUCUUUCCAGGCUAUGUAUAAAAUACAUAGUGAAAAUUGUUUAGUGAUAUUAC,0.435
UUAAUAUCAGUAGCCUAAAUUUAGGAGCACUAUAGUUUUAAAAAUACUUAAUUGGCUACUUUAUUUAACAAUGUUUUAGGGAUGUCGUUCAGUAUCUUUUCCAGUGUUUG,0.525
ACUGGUGAAGUGAGUAGGGAUUGUUCCCAGGCAAGCAGCCGUACUCGUCAUGUUUUCUGCGGAAAAGAACAGGCAGGAAAGCUGCUCCGAGCAGUUAGAGAAAAGCCGCC,0.27
CUGUGUGGAUGACUGUGUGACUGGGAGCCUGGACCGGCUGACAGGCCAUGAGCUACCCACUGGCAUCUCCAGGUUUUUUGUAGCAAACAGCCACUUAGUGCUUUGUCCUG,0.314

# Block 2
# Target: Histone acetyltransferase KAT6A, winged helix 1, GST fusion (KAT6A, Homo sapiens, UniProt Q92794, residues 1-85)
# Method: protein binding microarray
# Molecule type: double-stranded DNA, one strand shown
# Matrix: in vitro
# Concentration: not given
# Setting: 8-mer, flanks averaged, mean of 2 arrays, mostly near background
# Baseline: not given
# Direction: higher = stronger binding
# Construct (chain): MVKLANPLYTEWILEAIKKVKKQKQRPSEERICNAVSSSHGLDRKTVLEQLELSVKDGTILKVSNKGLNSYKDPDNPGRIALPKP
Oligonucleotide,E-score
GGCCACCC,0.0964
AGCCACTA,-0.0518
GCGAACCA,0.073
GATTCTTA,-0.063
CTCCTGTC,-0.251
ACAGGACC,0.0596
AGCTTATC,-0.0962
ACTATGCA,-0.167
CTGACTTC,0.0228
ACGTGGGC,-0.0867
AAATCCCG,0.216
ATGTGATG,-0.167
CAAACGAA,-0.0747
CGTTGGGC,0.0803
TACTACGA,-0.13
ACCAAGGC,0.0873
CCCTGCCC,-0.172
GAGGCCGC,0.314
ACTAGGCA,-0.0626
CACCCGCC,0.342
CTAGTAAA,0.0695
CGAGGAAC,0.148
ACTATCAA,-0.0365
CCACTAAC,-0.181
TCCCGTCA,0.239

# Block 3
# Target: Fragile X messenger ribonucleoprotein 1, C-terminal low-complexity region (Fmr1, Mus musculus, UniProt P35922)
# Method: RNA Bind-n-Seq
# Molecule type: RNA
# Matrix: in vitro
# Concentration: 200 nM
# Setting: whole 134-nt RNA, ends assumed
# With: 150 mM KCl
# Baseline: input library
# Direction: higher = stronger binding
# Constant ends, left off below: GGGAGUUCUACAGUCCGACGAUC … UGGAAUUCUCGGGUGUCAAGG
Oligonucleotide,log2 enrichment
GUCCUGUGCUACACAUCGUAUGUACCGAAUCGGGGUUUUUGGGGUUUGGGGAAAGGGGAAAGUAUUAUGUUACGCCGUUCGGAUCUGCAC,0.604
UGGCCCUGGUGGCAUGCGUGGAGGAAGAGGUGGCCUCAUGGAUCGUGGUGGUCCCGGUGGAAUGUUCAGAGGUGGCCGUGGUGGAGACAG,0.19
UCAAGUCCUGUGCUACACAUCGUAUGUACCGAAUCGGGAAGGGGAAGGGGAAGGAAAGUAUUAUGUUACGCCGUUCGGAUCUGCACUUCC,0.0373
CUCAAGUCCUGUGCUACACAUCGUAUGUACCGAAUCGGGAAGGAAGGGAAGGGGAAAGUAUUAUGUUACGCCGUUCGGAUCUGCACUUCC,0.292
UAACUUUAGAGGAGGAUCUGAUGGAUAUGGCAGUGGACCUGGAUUUGGGGAUGGCUAUAAUGGGUAUGGAGGAGGACCUGGAGGUGGCAA,0.125
UGGCCCUGGUGGCAUGCGGGGAGGAAGAGGUGGCCUCAUGGAUCGUGGUUGUCCCGGUGGAAUGUUCAGAGGUGGCCGUGGUGGAGACAG,0.0483
CCUGUGCUACACAUCGUAUGUACCGAAUCGGUUUUUUUGGUUUUUUUGGGGUUUUUUUGGAAAGUAUUAUGUUACGCCGUUCGGAUCUGC,-0.596
UAACUUUAGAGGAGGAUCUGAUGGAUGUGGCAGUGGACGUGGAUUUGGGGAUGGCUAUAAUGGGUAUGGAGGAGGACCUGGAGGUGGCAA,0.274
GCAGGAAGUAAAAACAAAUGGAAAUGCUUCGGAUAGUAGCAGGGGUGGGGGUUGCUAAGGAAAGGGUGGGAUGGGAGUGGGUAAAGAGUU,-0.0114
UGGGGUCUGCGUACGCCUGGAGUCCUUCCCCGCUGUGCUCAGCAUGGACCCUAUCCGGAGCUUCUGCGGGAAGCUGCGGUCUCUGGCCAG,-0.782
GCAGGAAGUAAGAACAAAUGGAAAUGCUUCGGAUAGUGGCAGGGGUGGGGGUUGCUAAGGAAAGGGUGGGAUGGGAGUGGGUAAAGAGUU,1.16
UCAAGUCCUGUGCUACACAUCGUAUGUACCGAAUCGGGGCCCGGCCCGGCCCGGGAAAGUAUUAUGUUACGCCGUUCGGAUCUGCACUUC,-0.566
CCUCAAGUCCUGUGCUACACAUCGUAUGUACCGAAUCGGUUUGGAAAGGUGGAAAGUAUUAUGUUACGCCGUUCGGAUCUGCACUUCCAG,0.161
CCUGUGCUACACAUCGUAUGUACCGAAUCGGGGAAAAAAAGGGGUUUUUGGGGUUUGGGGAAAGUAUUAUGUUACGCCGUUCGGAUCUGC,0.435

# Block 4
# Target: Phosphate system positive regulatory protein PHO4, full length, GST-tagged (PHO4, Saccharomyces cerevisiae, UniProt P07270, residues 1-312)
# Method: competition protein-binding microarray
# Molecule type: double-stranded DNA, one strand shown
# Matrix: in vitro
# Concentration: 2 µM
# Setting: whole 60-bp probe, lowest competitor level
# With: Cbf1 competitor, 0.05 µM
# Direction: higher = stronger binding
# Constant ends, left off below: … GTCTTGATTCGCTTGACGCTGCTG
# Residues (chain): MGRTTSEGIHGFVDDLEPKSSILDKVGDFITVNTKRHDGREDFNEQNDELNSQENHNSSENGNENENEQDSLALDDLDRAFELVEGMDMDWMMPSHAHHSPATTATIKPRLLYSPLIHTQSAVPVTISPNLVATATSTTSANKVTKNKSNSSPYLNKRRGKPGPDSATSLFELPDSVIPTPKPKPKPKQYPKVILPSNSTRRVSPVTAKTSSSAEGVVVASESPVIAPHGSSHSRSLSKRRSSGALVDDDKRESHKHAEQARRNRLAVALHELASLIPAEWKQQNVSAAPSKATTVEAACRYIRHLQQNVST
Oligonucleotide,fluorescence intensity
CAAACGTCTGTTTGCCACGGGCATCGCAAATCTTAC,7280 a.u.
CGTCCTAGCGATTGACCAGTGGGTGCCATGAGGAAG,6780 a.u.
TGCGCAACAACTTGCGCTGTGGGTGTATGTCTAGAA,4590 a.u.
GGGTGTTTTAAAAAGCACCTGACTTTTTCAATTGAA,4070 a.u.
GTCTTGTCTCATTGATTAGTGGGTGTCCCCACTTCA,4070 a.u.
CATACCCAACCTTGTTTCGTGGGTGAAGATATTTGT,4860 a.u.
GGAGAAGTTACTGTACACATGAAAACACGAATAACT,5640 a.u.
ACCTAGAGAAACCAAAACGTGATGGCCTGCTGGGAT,13100 a.u.
ATGAAACGGAGCAGTCATATGATCAAAATACAGAAT,4520 a.u.
ATTCTGAGCAATATCTCCGTGCCAGAAATAAGCCCC,4890 a.u.
GCTGCCTGCACCGACTGCGTGCGATCGTAATTGGTA,8990 a.u.
GAAAGCACTTTACTTCACGTGGGTACTATTCAGGTT,15900 a.u.
GGCAAAAGCTTACTTTCCGTGCCGAAGGTGTTGTTA,4830 a.u.
CACCTAACAGGCCGTCACGGCCCTGCATCGCAGATT,4200 a.u.
CATACCCAACCTTGTCGCGTGGGTGAAGATATTTGT,10900 a.u.
CAATTTACATGTTCCAACGTGACTCGAGAAAGCATG,11400 a.u.
GTCCTTTGGTGGTTCAACGTGAGTCAAGTCCTTGAA,7530 a.u.

# Block 5
# Target: CCNE1, cyclin fold, Cln2 fusion (human)
# Method: yeast growth competition, sequencing
# Matrix: yeast
# Setting: weak parent motif
# Baseline: not given
# Direction: higher = stronger binding
# Parent: CDC6 docking peptide (human); TLKGRRLVFDNQL
Variant,normalised enrichment score
TLKGRRLVFCNQL [D10C],1.08
TLEGRRLVFDNQL [K3E],-0.232
TLKGRRLPFDNQL [V8P],0.0235
TLKGRRLVFDNTL [Q12T],0.763
TLKLRRLVFDNQL [G4L],0.555
TLNGRRLVFDNQL [K3N],-0.0099
TLKGRRLMFDNQL [V8M],-0.0255
TLKGERLVFDNQL [R5E],0.171
QLKGRRLVFDNQL [T1Q],-0.37
TYKGRRLVFDNQL [L2Y],1.83
TKKGRRLVFDNQL [L2K],0.8
TLKGFRLVFDNQL [R5F],0.726
TLKGRRLVSDNQL [F9S],0.0785
ELKGRRLVFDNQL [T1E],1.1
KLKGRRLVFDNQL [T1K],0.921
TLKGRRLLFDNQL [V8L],1.04
TLKGRRLVFDNQE [L13E],0.815
TLKGSRLVFDNQL [R5S],-0.245
TLKGRNLVFDNQL [R6N],-0.48
TLKGRRLVFDNEL [Q12E],0.277
TLKGRCLVFDNQL [R6C],0.243
TLKGRRLQFDNQL [V8Q],-0.286
TLKGRRLEFDNQL [V8E],1.17
TLKGIRLVFDNQL [R5I],-0.232
TLKGRRLVFLNQL [D10L],0.103

# Excerpt of the above (block 5):
Variant,normalised enrichment score
TLKGRCLVFDNQL [R6C],0.243
TLKGIRLVFDNQL [R5I],-0.232
TLEGRRLVFDNQL [K3E],-0.232
TLKGRRLVSDNQL [F9S],0.0785
TLKGFRLVFDNQL [R5F],0.726
TLKLRRLVFDNQL [G4L],0.555
TLKGRRLVFDNTL [Q12T],0.763
TYKGRRLVFDNQL [L2Y],1.83
